Published values gathered from unrelated publications.
Each line is one published result; not all experiments were run side by side. Several values in a cell are separate wells, animals, samples, runs or records. ± gives the spread as reported.
lasR: Transcriptional activator protein LasR (lasR, Pseudomonas aeruginosa, UniProt P25084)
Chain of UniProt P25084 (whole entry, looked up): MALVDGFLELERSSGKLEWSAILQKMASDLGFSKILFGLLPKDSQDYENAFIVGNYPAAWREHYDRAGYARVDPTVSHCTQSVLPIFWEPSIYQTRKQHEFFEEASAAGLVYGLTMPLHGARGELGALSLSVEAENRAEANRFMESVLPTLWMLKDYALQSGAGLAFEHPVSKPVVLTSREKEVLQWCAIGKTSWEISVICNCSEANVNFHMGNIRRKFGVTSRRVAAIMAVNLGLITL
lysine riboswitch RNA: lysine riboswitch RNA, 2-aminopurine at 17 (Bacillus subtilis)
T1: riboswitch RNA U11G (Bacillus); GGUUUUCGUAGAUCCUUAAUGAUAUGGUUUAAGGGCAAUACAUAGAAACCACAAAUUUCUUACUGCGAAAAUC
T2: lysine riboswitch RNA, 2-aminopurine at 17 (Bacillus subtilis); chain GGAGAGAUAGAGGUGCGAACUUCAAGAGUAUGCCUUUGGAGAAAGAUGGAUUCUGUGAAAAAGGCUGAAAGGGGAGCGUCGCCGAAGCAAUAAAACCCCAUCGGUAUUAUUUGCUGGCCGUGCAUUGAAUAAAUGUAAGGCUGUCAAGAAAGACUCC; chain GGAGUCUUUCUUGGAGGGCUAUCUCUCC
T3: aptamer DNA A5T; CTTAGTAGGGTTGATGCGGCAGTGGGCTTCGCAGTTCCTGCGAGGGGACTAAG
T4: riboswitch RNA (Mesoplasma florum); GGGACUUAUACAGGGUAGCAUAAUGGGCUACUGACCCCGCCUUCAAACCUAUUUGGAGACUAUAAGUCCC
T5: aptamer DNA aminoglycoside aptamer; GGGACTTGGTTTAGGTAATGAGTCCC
T6: riboswitch RNA, extra G-C pair, UUCG loop; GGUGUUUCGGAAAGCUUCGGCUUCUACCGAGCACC
T7: riboswitch RNA SAM-I metF-H2 (Thermoanaerobacter tengcongensis); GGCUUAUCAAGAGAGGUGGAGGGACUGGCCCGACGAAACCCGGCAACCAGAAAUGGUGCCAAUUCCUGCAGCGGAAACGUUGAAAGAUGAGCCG
T8: aptamer DNA vancomycin aptamer variant; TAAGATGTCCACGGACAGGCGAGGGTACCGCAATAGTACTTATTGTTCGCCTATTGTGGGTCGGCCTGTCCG
Chain of UniProt Q16774 (whole entry, unmodified, looked up): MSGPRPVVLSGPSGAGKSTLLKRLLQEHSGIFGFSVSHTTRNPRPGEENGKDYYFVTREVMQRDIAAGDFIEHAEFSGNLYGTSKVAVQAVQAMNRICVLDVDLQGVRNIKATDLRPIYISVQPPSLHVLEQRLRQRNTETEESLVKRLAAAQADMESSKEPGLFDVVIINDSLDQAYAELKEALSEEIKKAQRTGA
Chain of UniProt Q6P2M8 (whole entry, looked up): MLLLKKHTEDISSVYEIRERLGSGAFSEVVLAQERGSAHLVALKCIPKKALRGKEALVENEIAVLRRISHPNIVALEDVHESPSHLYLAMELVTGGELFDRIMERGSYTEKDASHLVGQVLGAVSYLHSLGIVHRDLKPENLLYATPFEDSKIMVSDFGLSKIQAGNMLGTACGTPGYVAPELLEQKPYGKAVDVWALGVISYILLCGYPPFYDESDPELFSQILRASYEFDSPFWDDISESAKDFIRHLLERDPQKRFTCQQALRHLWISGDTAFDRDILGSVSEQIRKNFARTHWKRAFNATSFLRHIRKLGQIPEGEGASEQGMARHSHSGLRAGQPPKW
Chain of UniProt Q6NT16 (whole entry, unmodified, looked up): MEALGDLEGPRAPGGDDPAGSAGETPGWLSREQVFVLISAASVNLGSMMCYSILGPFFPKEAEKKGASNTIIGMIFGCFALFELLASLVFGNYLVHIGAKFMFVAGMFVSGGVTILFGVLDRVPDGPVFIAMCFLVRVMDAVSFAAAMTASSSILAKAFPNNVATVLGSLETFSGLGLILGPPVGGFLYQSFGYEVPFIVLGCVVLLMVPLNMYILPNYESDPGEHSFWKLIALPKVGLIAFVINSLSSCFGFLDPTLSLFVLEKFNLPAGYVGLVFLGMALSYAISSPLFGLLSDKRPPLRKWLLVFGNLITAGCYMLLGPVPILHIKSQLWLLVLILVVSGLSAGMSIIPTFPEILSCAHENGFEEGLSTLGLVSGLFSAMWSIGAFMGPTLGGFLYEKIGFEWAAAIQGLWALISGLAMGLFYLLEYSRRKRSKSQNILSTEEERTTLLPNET

COc1cccc(C(=O)C#Cc2ccc(O)c(OC)c2)c1  binding (lasR; receptor binding; concentration not given, 1.5 h, together with: OdDHL at 1:1 ratio; relative to: control): 80%
Nc1nc2c(ncn2[C@@H]2O[C@H](COP(=O)(O)O)[C@@H](O)[C@H]2O)c(=O)[nH]1  reaction rate (GUK1 (Homo sapiens, UniProt Q16774, D103A); enzyme activity, NADH-coupled; 7.812 µM): 2.71 s⁻¹ and 3.55 s⁻¹ and 1.42 s⁻¹
Nc1nc2c(ncn2[C@H]2C[C@H](O)[C@@H](CO)O2)c(=O)[nH]1  binding (T1, riboswitch RNA U11G (Bacillus); ITC; KCl 50 mM): no binding
N[C@@H](CCCCNC(=O)CCCC[C@@H]1SC[C@@H]2NC(=O)N[C@@H]21)C(=O)O  binding (T2, lysine riboswitch RNA, 2-aminopurine at 17 (Bacillus subtilis); 2-aminopurine fluorescence titration; pH 8.0): no binding
C[n+]1ccc(C=C2Sc3ccccc3N2CC(=O)NCCOCCOCCOCCNC(=O)CCCC[C@@H]2SC[C@@H]3NC(=O)N[C@@H]32)c2ccccc21  binding (T3, aptamer DNA A5T; X-ray crystallography): binds
Cn1cc(-c2ccc(-c3cncc(Cl)c3N3CCC4(CCNC4=O)CC3)cc2)cn1  log2 fold change (COLO 205; gene expression, microarray, item: NRF1 mRNA; concentration not given, 6 h; relative to: untreated cells): -2.24
O=C(C#Cc1ccc(F)c(F)c1)c1cccc(Cl)c1  binding (lasR; receptor binding; concentration not given, 1.5 h, together with: OdDHL at 1:1 ratio; relative to: control): 61%
Cc1c(-c2ccc(N3CCc4cccc(C(=O)Nc5nc6ccccc6s5)c4C3)nc2C(=O)O)cnn1CC12CC3(C)CC(C)(C1)CC(OCCNCC[C@H](O)CO)(C3)C2  dP/dt at 50 change (beagle dog, male, anaesthetised; intravenous infusion, 0.3 mg/kg/min, 15 min; relative to: vehicle): 1%
NC(=O)c1ccc[n+]([C@@H]2O[C@H](COP(=O)([O-])OP(=O)(O)OC[C@H]3O[C@@H](n4cnc5c(N)ncnc54)[C@H](O)[C@@H]3O)[C@@H](O)[C@H]2O)c1  binding (T4, riboswitch RNA (Mesoplasma florum); NMR): no binding
N[C@@H](CCCCNC(=O)CC[C@H](N)C(=O)O)C(=O)O  binding (T2, lysine riboswitch RNA, 2-aminopurine at 17 (Bacillus subtilis); 2-aminopurine fluorescence titration; pH 8.0): no binding
CN1CCC(c2cc(-c3ccncc3)c(-c3ccc(F)cc3)[nH]2)CC1  parasite growth (Plasmodium falciparum; LDH colourimetric; 3D7 Hyp1-Nluc; 20 µM, 72 h; relative to: DMSO): 14.8%
C1=C/COCc2cc(ccc2OCCN2CCCC2)Nc2nccc(n2)-c2cccc(c2)COC/1  binding (Calcium/calmodulin-dependent protein kinase type 1B (PNCK, Homo sapiens, UniProt Q6P2M8); concentration not given, kinase construct CAMK1B; relative to: control): 34%
COc1cc(C#CC(=O)CC(C)C)ccc1O  binding (lasR; receptor binding; concentration not given, 1.5 h, together with: OdDHL at 1:1 ratio; relative to: control): 84%
NC[C@H]1O[C@H](O[C@H]2[C@H](O)[C@@H](O[C@H]3O[C@H](CO)[C@@H](O)[C@H](N)[C@H]3O)[C@H](N)C[C@@H]2N)[C@H](O)[C@@H](O)[C@@H]1O  binding (T5, aptamer DNA aminoglycoside aptamer; chronoamperometry; apparent, aptamer electrode): binds
NC[C@H]1O[C@H](O[C@H]2[C@H](O)[C@@H](O[C@H]3O[C@H](CO)[C@@H](O)[C@H](N)[C@H]3O)[C@H](N)C[C@@H]2N)[C@H](N)[C@@H](O)[C@@H]1O  binding (T6, riboswitch RNA, extra G-C pair, UUCG loop; 1H,15N-HSQC NMR; pH 6.2, 283 K): binds
C[S+](CC[C@H](N)C(=O)O)C[C@H]1O[C@@H](n2cnc3c(N)ncnc32)[C@H](O)[C@@H]1O (stereo partly shown)  binding (T7, riboswitch RNA SAM-I metF-H2 (Thermoanaerobacter tengcongensis); ITC; apparent): binds
NCCCNCCCCNCCCN  Kd (MFS-type transporter SLC18B1 (SLC18B1, Homo sapiens, UniProt Q6NT16, Y51A); binder): 296 µM
C[C@@H](O)[C@H](N)C(=O)O  binding (T2, lysine riboswitch RNA, 2-aminopurine at 17 (Bacillus subtilis); 2-aminopurine fluorescence titration; pH 8.0, no fluorescence change): no binding
CC(C)C[C@H](NC(=O)C[C@H](O)[C@H](CC(C)C)NC(=O)[C@H](Cc1c[nH]cn1)NC(=O)CNC(=O)[C@@H](NC(=O)[C@H](C)NC(=O)[C@H](Cc1c[nH]c2ccccc12)NC(=O)[C@H](CCC(N)=O)NC(=O)[C@@H](Cc1ccccc1)NC(=O)COCCOCCNC(=O)CCC(C(=O)O)N1CCN(CC(=O)O)CCN(CC(=O)O)CCN(CC(=O)O)CC1)C(C)C)C(N)=O (stereo partly shown) [lutetium-177 labelled]  tissue uptake (BALB/c nu/nu mice, large intestine; 50 pmol, 1 h, together with: PA 300 µg): 1.7 ± 0.4 %ID/g
COc1cc(C#CC(=O)c2ccccc2OC)ccc1O  binding (lasR; receptor binding; concentration not given, 1.5 h, together with: OdDHL at 1:1 ratio; relative to: control): 77%
CN[C@H](CC(C)C)C(=O)N[C@H]1C(=O)N[C@@H](CC(N)=O)C(=O)N[C@H]2C(=O)N[C@H]3C(=O)N[C@H](C(=O)N[C@H](C(=O)O)c4cc(O)cc(O)c4-c4cc3ccc4O)[C@H](O)c3ccc(c(Cl)c3)Oc3cc2cc(c3O[C@@H]2O[C@H](CO)[C@@H](O)[C@H](O)[C@H]2O[C@H]2C[C@](C)(N)[C@H](O)[C@H](C)O2)Oc2ccc(cc2Cl)[C@H]1O  binding (T8, aptamer DNA vancomycin aptamer variant; competitor, fluorescence; pH 7.4, MgCl2 10 mM): binds
CC(C)[C@H](NC(=O)[C@H](Cc1ccc(O)cc1)NC(=O)[C@H](Cc1ccc(O)cc1)NC(=O)[C@@H]1CCCN1C(=O)[C@H](CCC(=O)O)NC(=O)[C@H](CCC(=O)O)NC(=O)[C@H](Cc1c[nH]c2ccccc12)NC(=O)[C@@H]1CCCN1C(=O)[C@@H](NC(=O)[C@H](CCC(N)=O)NC(=O)c1ccc2c(c1)C(=O)OC21c2ccc(O)cc2Oc2cc(O)ccc21)C(C)C)C(=O)N[C@H](C(=O)N[C@@H](CCCCN)C(=O)N[C@@H](CCCCN)C(=O)N[C@@H](CO)C(=O)N[C@@H](CO)C(=O)NCC(=O)NCC(N)=O)C(C)C  plasma concentration (human, plasma; intravenous infusion, 400 mg, 0.08333 h): 6750 ng/mL

Excerpt of the above:
COc1cc(C#CC(=O)CC(C)C)ccc1O  binding (lasR; receptor binding; concentration not given, 1.5 h, together with: OdDHL at 1:1 ratio; relative to: control): 84%
NC[C@H]1O[C@H](O[C@H]2[C@H](O)[C@@H](O[C@H]3O[C@H](CO)[C@@H](O)[C@H](N)[C@H]3O)[C@H](N)C[C@@H]2N)[C@H](O)[C@@H](O)[C@@H]1O  binding (T5, aptamer DNA aminoglycoside aptamer; chronoamperometry; apparent, aptamer electrode): binds
